Assay results from different studies.
Lines come from different studies, so protocols differ. ≈ marks a conversion by molar mass, not a printed value.
MAP2K7: Dual specificity mitogen-activated protein kinase kinase 7 (MAP2K7, Homo sapiens, UniProt O14733)
UniProt O14733, sequence (whole entry, looked up): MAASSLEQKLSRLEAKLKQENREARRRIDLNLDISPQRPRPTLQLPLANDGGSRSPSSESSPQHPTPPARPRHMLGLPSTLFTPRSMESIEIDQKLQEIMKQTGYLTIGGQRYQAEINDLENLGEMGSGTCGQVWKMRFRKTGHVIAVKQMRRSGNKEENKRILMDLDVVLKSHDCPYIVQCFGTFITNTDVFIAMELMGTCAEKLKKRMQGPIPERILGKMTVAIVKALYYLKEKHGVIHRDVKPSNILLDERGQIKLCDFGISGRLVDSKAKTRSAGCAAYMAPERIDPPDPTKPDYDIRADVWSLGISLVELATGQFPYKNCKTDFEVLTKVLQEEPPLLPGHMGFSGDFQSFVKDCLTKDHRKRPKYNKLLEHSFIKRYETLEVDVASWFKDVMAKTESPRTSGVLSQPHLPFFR
UniProt Q15208, sequence (whole entry, looked up): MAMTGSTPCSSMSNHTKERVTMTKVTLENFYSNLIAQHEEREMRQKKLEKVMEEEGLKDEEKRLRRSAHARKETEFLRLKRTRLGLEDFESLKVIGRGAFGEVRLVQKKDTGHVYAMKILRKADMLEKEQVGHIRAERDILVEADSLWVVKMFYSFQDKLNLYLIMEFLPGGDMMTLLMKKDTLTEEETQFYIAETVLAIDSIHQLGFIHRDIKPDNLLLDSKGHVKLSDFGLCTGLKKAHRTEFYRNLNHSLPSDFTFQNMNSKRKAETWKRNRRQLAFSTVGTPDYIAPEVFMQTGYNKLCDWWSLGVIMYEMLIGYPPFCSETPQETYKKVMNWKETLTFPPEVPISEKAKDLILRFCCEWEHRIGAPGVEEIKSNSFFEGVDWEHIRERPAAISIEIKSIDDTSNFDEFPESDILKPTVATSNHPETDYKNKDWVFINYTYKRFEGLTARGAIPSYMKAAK

| SMILES | tested on | test | test system | setting | quantity | value |
| --- | --- | --- | --- | --- | --- | --- |
| CO/C=C(/C(=O)OC)c1ccccc1Oc1cc(Oc2ccccc2C#N)ncn1 | Pyricularia grisea | microbial growth |  |  | EC50 | > 50 µg/mL |
| CC(C)[C@@H]1NC(=O)[C@@H](CC(N)=O)NC(=O)[C@H](Cc2ccccc2)NC(=O)[C@@H](CCCN)NC(=O)[C@H](CCCN)NC(=O)[C@H]([C@@H](C)O)NC(=O)[C@@H](C(C)C)NC(=O)[C@H](C(C)C)NC(=O)[C@@H]([C@H](C)O)NC(=O)[C@@H](C(C)C)NC1=O | Balamuthia mandrillaris | parasite growth, ATP luminescence |  |  | IC90 | > 16 µg/mL |
| CC(C)(C)c1ccc(C=Nc2ccc(SCc3cc(=O)c(O)co3)cc2)cc1 |  | ABTS scavenging, absorbance |  |  | IC50 | 9.65 µM |
| Cn1cc2c3c1C(=O)C(NCCc1ccc(O)cc1)=CC3=NCC2 | Babesia duncani | parasite growth, SYBR Green |  | 60 h, blood stage | IC50 | 1.6 µM |
| [2H]c1c([2H])c([C@]2([2H])CCCN2C(=O)C(C)(C)Oc2ccc3cn[nH]c3c2)c([2H])c([2H])c1C([2H])([2H])[2H] | STK38 (Homo sapiens, UniProt Q15208) | binding, competition with immobilised ligand |  | 1 µM | remaining binding | 100% |
| Cc1ccccc1C=Nc1ccc(SCc2cc(=O)c(O)co2)cc1 |  | ABTS scavenging, absorbance |  |  | IC50 | 36.4 µM |
| CCOC(=O)C1=C(N)N(c2ccc(C(=O)OCC)cc2)C(O)=C(C#N)C12C(=O)Nc1ccccc12 (stereo not shown) | HepG2 | cell growth or viability, MTT |  | 1.56 µM, 24 h | viability | 88.2% |
| COC(=O)c1cc(-c2cccc(NC(=O)Nc3ccc(C)c(Cl)c3)c2)on1 | Acinetobacter baumannii | microbial growth, broth dilution | BAA1605 |  | MIC | > 64 µg/mL |
| C[C@@H](O)[C@@H]1NC(=O)[C@H](Cc2ccccc2)NC(=O)[C@@H](Cc2ccccc2)NC(=O)[C@H](Cc2ccccc2)NC(=O)[C@@H](CCCN)NC(=O)[C@H](CCCCN)NC(=O)[C@@H](CCCCN)NC1=O | Balamuthia mandrillaris | parasite growth, ATP luminescence |  |  | IC90 | > 16 µg/mL |
| O=C(NNc1ccc(Cl)cc1)c1nnc(C23CC4CC(CC(C4)C2)C3)o1 | Pyricularia grisea | microbial growth |  |  | EC50 | 7.49 µg/mL (≈ 20.1 µM) |
| O=c1cc(CSc2ccc(N=Cc3ccccc3Br)cc2)occ1O |  | ABTS scavenging, absorbance |  |  | IC50 | 0.01 µM |
| O=C(NNc1ccccc1)c1nnc(CC23CC4CC(CC(C4)C2)C3)o1 | Pyricularia grisea | microbial growth |  |  | EC50 | > 50 µg/mL |
| C[N+]1=C2C=C(N/C=C/c3ccc(O)cc3)C(=O)c3[nH]cc(c32)CC1 | Babesia duncani | parasite growth, SYBR Green |  | 60 h, blood stage | IC50 | 0.208 µM |
| COc1ncccc1-c1cnn2ccc(N3CCN(C(=O)OC(C)C)CC3)nc12 | MAP2K7 | binding, competition with immobilised ligand |  | 1 µM | remaining binding | 92% |
| COC(=O)c1cc(-c2cccc(NC(=O)Nc3ccccc3C)c2)on1 | Acinetobacter baumannii | microbial growth, broth dilution | BAA1605 |  | MIC | > 64 µg/mL |
| Cn1cc2c3c1C(=O)C(NCCc1ccc(O)cc1)=CC3=[N+](C)CC2 | Babesia duncani | parasite growth, SYBR Green |  | 60 h, blood stage | IC50 | 0.0458 µM |
| Cc1nn(C)cc1-c1nc2c(N3CCN(Cc4ccc(Cl)cc4)CC3)c(Cl)cnc2[nH]1 | MAP2K7 | binding, competition with immobilised ligand |  | 1 µM | remaining binding | 100% |
| O=C(NNc1cc(F)ccc1F)c1nnc(CC23CC4CC(CC(C4)C2)C3)o1 | Pyricularia grisea | microbial growth |  |  | EC50 | 6.25 µg/mL (≈ 16.1 µM) |
| CC(C)[C@@H]1NC(=O)[C@@H](CCCCN)NC(=O)[C@H](CCCCN)NC(=O)[C@@H](CCCN)NC(=O)[C@H](C)NC(=O)[C@H](Cc2c[nH]c3ccccc23)NC(=O)[C@@H](Cc2ccccc2)NC1=O | Balamuthia mandrillaris | parasite growth, ATP luminescence |  |  | IC90 | > 16 µg/mL |
| CCc1ccc(C=Nc2ccc(SCc3cc(=O)c(O)co3)cc2)cc1 |  | ABTS scavenging, absorbance |  |  | IC50 | 12.3 µM |

| SMILES | tested on | test | test system | setting | quantity | value |
| --- | --- | --- | --- | --- | --- | --- |
| Cc1sc2c(c1C)C(c1ccc(Cl)cc1)=N[C@@H](CC(=O)OC(C)(C)C)c1nnc(C)n1-2 | OCI-Ly1 | cell growth or viability, ATP luminescence |  | 1 µM, 5 days | viability | 21.3% |
| COc1ccc(Nc2nn3c(-c4ccccc4)ccnc3c2C(=O)Nc2ccc(Cl)cc2)cc1 | Caco-2 | cell growth or viability, MTT |  | 6.25 µg/mL, 48 h, serum-free | viability | 60% |
| CC(C)[C@@H]1NC(=O)[C@@H](CCCN)NC(=O)[C@H]([C@@H](C)O)NC(=O)[C@H](Cc2ccccc2)NC(=O)[C@@H](Cc2ccccc2)NC(=O)[C@H](Cc2ccccc2)NC(=O)[C@@H](CCCN)NC1=O | Balamuthia mandrillaris | parasite growth, ATP luminescence |  |  | IC90 | > 16 µg/mL |
| O=C(NNc1ccc(Cl)c(Cl)c1)c1nnc(CC23CC4CC(CC(C4)C2)C3)o1 | Pyricularia grisea | microbial growth |  |  | EC50 | > 12.5 µg/mL |
| N.N.[Cl][Pt][Cl] | Raji | cell growth or viability, ATP luminescence |  | 10 µM, 72 h | inhibition | 97% |
| COC(=O)c1cc(-c2cccc(NC(=S)Nc3cccc(Cl)c3)c2)on1 | Mycobacteroides abscessus | microbial growth, broth dilution | ATCC19977 | 48 h | MIC | > 64 µg/mL |
| NCCCC[C@H]1NC(=O)[C@H](Cc2ccccc2)NC(=O)[C@@H](Cc2ccccc2)NC(=O)[C@H](Cc2ccccc2)NC(=O)[C@@H](CCCN)NC(=O)[C@H](CCCN)NC1=O | Balamuthia mandrillaris | parasite growth, ATP luminescence |  |  | IC50 | 12.6 µM |
| COC(=O)c1cc(-c2cccc(NC(=S)Nc3cccc(Br)c3)c2)on1 | Escherichia coli | microbial growth, broth dilution | ATCC25922 |  | MIC | > 64 µg/mL |
| C#CC[C@@H]1NC(=O)[C@@H](CCCNC(=N)N)NC(=O)[C@H]([C@@H](C)O)NC(=O)[C@@H](CCCN)NC(=O)[C@H](Cc2ccccc2)NC(=O)[C@@H](Cc2ccccc2)NC1=O | Balamuthia mandrillaris | parasite growth, ATP luminescence |  |  | IC50 | 16.4 µM |
| O=C(NNc1ccc(F)c(F)c1)c1nnc(C23CC4CC(CC(C4)C2)C3)o1 | Pyricularia grisea | microbial growth |  |  | EC50 | > 50 µg/mL |
| COC(=O)c1cc(-c2ccc(OC)c(NC(=O)Nc3ccc(Cl)c(Cl)c3)c2)on1 | Acinetobacter baumannii | microbial growth, broth dilution | BAA1605 |  | MIC | > 64 µg/mL |
| C[C@@H](O)[C@@H]1NC(=O)[C@H](Cc2ccccc2)NC(=O)[C@@H](Cc2ccccc2)NC(=O)[C@H]([C@@H](C)O)NC(=O)[C@@H](CCCCN)NC(=O)[C@H](CC(=O)O)NC1=O | Balamuthia mandrillaris | parasite growth, ATP luminescence |  |  | IC50 | > 16 µg/mL |
| COc1ccc(Nc2nn3c(-c4ccccc4)ccnc3c2C(=O)Nc2ccccc2)cc1 | Caco-2 | cell growth or viability, MTT |  | 6.25 µg/mL, 48 h, serum-free | viability | 84.2% |
| Cn1cc2c3c1C(=O)C(N)=CC3=[N+](C)CC2 | Babesia duncani | parasite growth, SYBR Green |  | 60 h, blood stage | IC50 | 2.6 µM |
| COC(=O)c1cc(-c2cccc(NC(=S)Nc3cc(C(F)(F)F)cc(C(F)(F)F)c3)c2)on1 | Escherichia coli | microbial growth, broth dilution | ATCC25922 |  | MIC | > 64 µg/mL |
| C[C@@H]1[C@H](O)[C@@H](C)/C=C/C=C/C=C/C=C/C=C/C=C/C=C/[C@H](O[C@@H]2O[C@H](C)[C@@H](O)[C@H](N)[C@@H]2O)C[C@@H]2O[C@](O)(C[C@@H](O)C[C@@H](O)[C@H](O)CC[C@@H](O)C[C@@H](O)CC(=O)O[C@H]1C)C[C@H](O)[C@H]2C(=O)O | Nakaseomyces glabratus | microbial growth, broth dilution | MY1381 |  | MIC | 0.5 µg/mL (≈ 0.541 µM) |
| OC(Cn1cncn1)(Cn1cncn1)c1ccc(F)cc1F | Pichia kudriavzevii | microbial growth, broth dilution | ATCC34135 |  | MIC | 16 µg/mL (≈ 52.2 µM) |
| CC(C)[C@@H]1NC(=O)[C@@H](CCCCN)NC(=O)[C@H](CCCN)NC(=O)[C@@H](CC(=O)O)NC(=O)[C@H](C)NC(=O)[C@H](Cc2c[nH]c3ccccc23)NC(=O)[C@@H](Cc2c[nH]c3ccccc23)NC1=O | Balamuthia mandrillaris | parasite growth, ATP luminescence |  |  | IC50 | > 16 µg/mL |
| Cc1ccc(NNC(=O)c2nnc(CC34CC5CC(CC(C5)C3)C4)o2)cc1 | Pyricularia grisea | microbial growth |  |  | EC50 | > 50 µg/mL |
| Cc1ccc(C=Nc2ccc(SCc3cc(=O)c(O)co3)cc2)cc1 |  | ABTS scavenging, absorbance |  |  | IC50 | 16.1 µM |

For quick reference, copied from above:
| SMILES | tested on | test | test system | setting | quantity | value |
| --- | --- | --- | --- | --- | --- | --- |
| N.N.[Cl][Pt][Cl] | Raji | cell growth or viability, ATP luminescence |  | 10 µM, 72 h | inhibition | 97% |
| Cc1nn(C)cc1-c1nc2c(N3CCN(Cc4ccc(Cl)cc4)CC3)c(Cl)cnc2[nH]1 | MAP2K7 | binding, competition with immobilised ligand |  | 1 µM | remaining binding | 100% |
